{"data": "Measurements from different studies", "note": "Parts stem from different laboratories: compare values within a part only."}
{"data": "Sample 1", "target": "RING finger protein unkempt homolog, zinc fingers 1-6, GST-SBP tag (UNK, Homo sapiens, UniProt Q9C0B0, residues 30-357)", "technique": "RNA Bind-n-Seq", "form": "RNA", "matrix": "in vitro", "tested at": "not given", "setting": "RNA with constant flanks, human and mouse sites, ends assumed", "baseline": "input RNA pool", "reading": "higher = stronger binding", "all sequences stand within": "GGGAGUUCUACAGUCCGACGAUC … CAACAGAGGAUUGAGCAUCA", "Residues (chain)": "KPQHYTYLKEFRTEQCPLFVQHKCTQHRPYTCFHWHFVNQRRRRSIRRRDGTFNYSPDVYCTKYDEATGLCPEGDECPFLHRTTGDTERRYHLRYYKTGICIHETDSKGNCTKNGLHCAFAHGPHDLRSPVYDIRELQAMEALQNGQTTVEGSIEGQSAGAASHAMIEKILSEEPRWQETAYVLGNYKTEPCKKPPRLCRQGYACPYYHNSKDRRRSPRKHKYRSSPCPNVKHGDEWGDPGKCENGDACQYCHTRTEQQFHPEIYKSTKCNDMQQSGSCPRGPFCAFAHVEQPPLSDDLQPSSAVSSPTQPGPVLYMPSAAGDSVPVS"}
{"Oligonucleotide": "GUAGAUAAGGUCAUGGAUCAGAAAGAACAUAAAUUGAAUGGGAAAGUCAUUGAUCCUAAAAGGGCCAAAGCCAUGAAAACAAAAGAGCCUGUCAAAAAAAUUUUUGUUGGUGGCCUUUCU", "bound/input enrichment": "0.352 ratio"}
{"Oligonucleotide": "GGCCCUGAGAAAGCCAAGACCCAGGACGUAAUCAACAUAGCUACCCAAGAGAUAAAUGCAGACCCUCCCGUUGCCCAAGAGGUUCAGGUGGCUGCAGAGAUCACAGGGGCGACUCCUCAC", "bound/input enrichment": "0.0497 ratio"}
{"Oligonucleotide": "AUUGCGCCGGCAGGAUGUCCCUGGCUGCCUACUGUGUCAUCUGUUGCAGGAGGAUAGGAUCCUUUGCUCCCCGAUCAAAAAGUCGCACGCCCUGGAGAAAUAUCCGAAAUAUAAUAAGAU", "bound/input enrichment": "0.125 ratio"}
{"Oligonucleotide": "AAGGUGAUAACCAUGUUUGUACAGCGACAGGUGUUUGCUGAGAACAAGGAUGAGAUUGCUUUAGUCCUGUUUGGUACAGAUGGCACUGACAAUCCCCUUUCUGGUGGGGAUCAGUAUCAG", "bound/input enrichment": "0.163 ratio"}
{"Oligonucleotide": "UGUGUGUGUGUGUGUGUGUGUGUGUGUGUGUGUGUGUGAAUUUUCUAUCGGCCUGGAUAUAUUAGCAGGGUUUGAAUGUAGUUUUGGCCUUUGGCCAUUAUAUACUUCUAUUAAAAUCCA", "bound/input enrichment": "2.04 ratio"}
{"Oligonucleotide": "AUGAAGACUCGAAGAGGAGGGGUCACUUUUCUGGAAGAUGUCUUAAAUGAGGUUCAAUCAAGGAUGCUACAGAACAUGGCUUCCAUUAAGACCACGAAACAAUUGGAGAACCCUCAGGAG", "bound/input enrichment": "0.209 ratio"}
{"Oligonucleotide": "GUGAACCCAGUGGAGUUCUGCCGCCGCGACAUUCCUCUGCUGGACAGGGACAACAUUGGAUUGGUUUUACUCCUGCAGCCCAAGAUCCCACGCGCUGCCUCUCCAUCCAUCUGCAUAGCU", "bound/input enrichment": "0.246 ratio"}
{"Oligonucleotide": "GUCUCCUUUCUUAAAGAAGUGCCACCCCCUUUUACUUUGGUUUGCUGUCGGAGGUUGUUUGAUGAUGAAGCUUCUGUAGAUGAACCAAGGCGCACUGAAACCUCUCUUCCUGAGACAGAG", "bound/input enrichment": "0.383 ratio"}
{"Oligonucleotide": "GAAAAUCAAGCAGCCGAAGAUGAACUAAGAAAAGAGAUAAGUAAAACGAUGUUUGCAGAAAUGGAAAUCAUUGGUCAGUUUAACCUGGGAUUUAUAAUAACCAAACUGAAUGAGGAUAUC", "bound/input enrichment": "0.344 ratio"}
{"Oligonucleotide": "AUGUGGUAUCGUUUACGGUUAUUAAAACCCCAGCCAAAUAUUAUUCCUACAGUAAAGAAAAUAGUUCUGCUUGCAGGAUGGGCACUGUUCUUAUUUCUUGCAUACAAAGUUUCCAAAACA", "bound/input enrichment": "0.277 ratio"}
{"Oligonucleotide": "CCAGUCCCUCAGUCCCUUCCCGCGCGGUGCGCCGCAGCCGAGGCGAUGCGCCUCAUUCAGAACAUGUGCACCAUCGCCGAGUACCCCGCGCCGGGCAACGCCGCGGCCUCCGACUGCUGU", "bound/input enrichment": "0.0946 ratio"}
{"data": "Sample 2", "target": "Interferon regulatory factor 7, full length, phosphomimetic (IRF7, Homo sapiens, UniProt Q92985, residues 1-503, S101K/S471D/S472D/S475D/S476D/S477D/S483D/S484D/S487D)", "technique": "protein-binding microarray", "form": "double-stranded DNA, one strand shown", "matrix": "in vitro", "tested at": "250 nM", "setting": "60-bp whole probe", "with": "salmon DNA 0.4 mg/ml", "baseline": "random background probes", "reading": "higher = stronger binding", "all sequences stand within": "GCCTAGCAC … GTCTTGATTCGCTTGACGCTGCTG", "UniProt Q92985, sequence (whole entry, unmodified, looked up)": "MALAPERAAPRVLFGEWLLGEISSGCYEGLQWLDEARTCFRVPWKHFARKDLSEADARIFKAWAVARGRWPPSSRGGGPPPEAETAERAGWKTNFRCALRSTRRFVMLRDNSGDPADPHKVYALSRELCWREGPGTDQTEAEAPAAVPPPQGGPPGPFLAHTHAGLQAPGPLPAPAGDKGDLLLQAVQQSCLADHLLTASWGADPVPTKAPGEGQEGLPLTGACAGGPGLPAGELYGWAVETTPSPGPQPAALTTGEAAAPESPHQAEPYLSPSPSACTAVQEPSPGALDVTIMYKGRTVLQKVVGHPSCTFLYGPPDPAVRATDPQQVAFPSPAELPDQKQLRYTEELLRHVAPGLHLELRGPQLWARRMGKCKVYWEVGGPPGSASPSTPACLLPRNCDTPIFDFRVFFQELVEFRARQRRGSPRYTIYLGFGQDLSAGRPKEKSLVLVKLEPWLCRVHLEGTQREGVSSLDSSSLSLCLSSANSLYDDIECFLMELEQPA"}
{"Oligonucleotide": "GACGGTTTCGGTTTTGGGACGTGCTAG", "log fluorescence": "13.7 z-score"}
{"Oligonucleotide": "TTAGGTCTCCTTATCCTCTAGTGCTAG", "log fluorescence": "0.564 z-score"}
{"Oligonucleotide": "TCATTTTTTTAATTGAGACTGTGCTAG", "log fluorescence": "0.473 z-score"}
{"Oligonucleotide": "TTAGGTTTCGCTATCGGTTAGTGCTAG", "log fluorescence": "8.64 z-score"}
{"Oligonucleotide": "AACGGACTGGGGTTTCGGGACGTGCTA", "log fluorescence": "1.14 z-score"}
{"Oligonucleotide": "TCACCCCTCTCTTTCCAACTGTGCTAG", "log fluorescence": "0.382 z-score"}
{"Oligonucleotide": "CTTGTTTCCAGTATATTTAAGTGCTAG", "log fluorescence": "2.82 z-score"}
{"Oligonucleotide": "TTAGGTTTCGGGTATCGGCTAGTGCTA", "log fluorescence": "6.92 z-score"}
{"Oligonucleotide": "AATAAAATGAATATTAGAAGGTGCTAG", "log fluorescence": "-0.117 z-score"}
{"Oligonucleotide": "TTTGCTTTCCTTCTTGAACTGTGCTAG", "log fluorescence": "0.994 z-score"}
{"Oligonucleotide": "TCAAGTCTGGGAGATGAAACTGTGCTA", "log fluorescence": "-0.601 z-score"}
{"Oligonucleotide": "TCCATTTTCAGAATTTACTTGTGCTAG", "log fluorescence": "1.09 z-score"}
{"Oligonucleotide": "TCAATCGTCCCTTTGAGACTGTGCTAG", "log fluorescence": "0.158 z-score"}
{"Oligonucleotide": "TTAGGACTGGACACTGGGTTGGTGCTA", "log fluorescence": "-0.793 z-score"}
{"Oligonucleotide": "TACTGGACTGGGGTTTCCCGGTGCTAG", "log fluorescence": "-0.47 z-score"}
{"Oligonucleotide": "TTAGGTTGCCTTCTCCTTTAGTGCTAG", "log fluorescence": "-0.0998 z-score"}
{"Oligonucleotide": "TTAGGTTACGGGTATCGGTTAGTGCTA", "log fluorescence": "1.33 z-score"}
{"Oligonucleotide": "TTAGGGATCGACACTGGGTTAGTGCTA", "log fluorescence": "-0.558 z-score"}
{"Oligonucleotide": "GAAGCCAGCTCTTTCGTTACGTGCTAG", "log fluorescence": "-0.365 z-score"}
{"data": "Sample 3", "target": "Histone acetyltransferase KAT6A, winged helix 1, GST fusion (KAT6A, Homo sapiens, UniProt Q92794, residues 1-85)", "technique": "protein binding microarray", "form": "double-stranded DNA, one strand shown", "matrix": "in vitro", "tested at": "not given", "setting": "8-mer, flanks averaged, mean of 2 arrays, mostly near background", "baseline": "not given", "reading": "higher = stronger binding", "Target sequence (chain)": "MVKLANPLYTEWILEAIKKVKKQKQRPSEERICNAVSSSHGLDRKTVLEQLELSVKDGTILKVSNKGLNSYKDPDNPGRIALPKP"}
{"Oligonucleotide": "ATGGTACA", "E-score": -0.0255}
{"Oligonucleotide": "CGAGGGCC", "E-score": 0.0299}
{"Oligonucleotide": "GTGCTGAA", "E-score": -0.202}
{"Oligonucleotide": "AAGACCTT", "E-score": -0.063}
{"Oligonucleotide": "ATTAGTAA", "E-score": -0.0869}
{"Oligonucleotide": "CGAGAGGC", "E-score": 0.108}
{"Oligonucleotide": "CCCCTAGG", "E-score": -0.135}
{"Oligonucleotide": "AATGTATA", "E-score": -0.135}
{"Oligonucleotide": "TACTCAGA", "E-score": -0.0589}
{"Oligonucleotide": "GATGGTCA", "E-score": -0.0981}
{"Oligonucleotide": "GTACTTGA", "E-score": -0.0603}
{"Oligonucleotide": "ACATGGAA", "E-score": -0.171}
{"Oligonucleotide": "ATACGATA", "E-score": -0.0645}
{"Oligonucleotide": "ACTCACGA", "E-score": -0.221}
{"Oligonucleotide": "CCTCTGGC", "E-score": -0.138}
{"Oligonucleotide": "CATAATGA", "E-score": -0.183}
{"Oligonucleotide": "ACTAGACT", "E-score": 0.0578}
{"Oligonucleotide": "CGCGTAAG", "E-score": 0.364}
{"Oligonucleotide": "AAGCCATA", "E-score": -0.0854}
{"data": "Sample 4", "target": "RNA binding protein fox-1 homolog 2, RRM domain, GST-SBP tag (RBFOX2, Homo sapiens, UniProt O43251-10, residues 100-194)", "technique": "RNA Bind-n-Seq", "form": "RNA", "matrix": "in vitro", "tested at": "365 nM", "setting": "natural RNA segment, single round, ends assumed", "baseline": "no-protein control", "reading": "higher = stronger binding", "all sequences stand within": "GGGAGUUCUACAGUCCGACGAUC … UGGAAUUCUCGGGUGCCAA", "Residues (chain)": "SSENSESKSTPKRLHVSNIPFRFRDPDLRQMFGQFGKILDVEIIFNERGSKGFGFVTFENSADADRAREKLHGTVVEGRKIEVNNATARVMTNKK"}
{"Oligonucleotide": "GGGGCCAGGGAGCUGGAGAUGGCCUCCAGCGUCAGUGCCAAGACUGAGCGGGCCCUCCAGUGUUGUCCAAGGAAAUGUAGAAUCACUUUGUAGAUAUGGAGAUGAAGAAG", "RBNS enrichment (R)": 0.516}
{"Oligonucleotide": "UUAAAGUCUCUUGUGUAAGAGCCAACACAUGCCCAGCUGCGGAUGGGAGCUGUUCCUGGACAGCCUUCUACUGCCUGGGAAGUGAUGGAACAGGAACUCAGGGUGCCCUU", "RBNS enrichment (R)": 0.215}
{"Oligonucleotide": "CAAAUCCUAGAGCCAGCUGAUAAUAUUUAAUAAUCUGGAGGAGAGAAUAAUGAUGUACCAAUAAGUGGAGAUUCCUCCUUAUGAUGUAUGCUAGGUUAUGGAAGAUGUAA", "RBNS enrichment (R)": 2.83}
{"Oligonucleotide": "GGAUGUGGAGCUUUCUGCCAUGAUGAUUGCAUUGGCCCCUCCAAACUCUGUGUCUCCUGCCUUGUUGUUCGGUAAUAAGACUGUAGCGUAUGUAAAGGAGGGAAGGGAAG", "RBNS enrichment (R)": 0.966}
{"Oligonucleotide": "UUGUUGUGGCCUUCCUGGUGUAAGAGUCUGUGUUCCUUGGUCACCUCUCCUGAUUCAGACCAGCUCCAUCAAGCAACCUCUUUUGACUUUCUGUAUAUGGAUGGCACAGA", "RBNS enrichment (R)": 1.05}
{"Oligonucleotide": "UGUAUCAGUUGAGUCAGCUUGGUGGCUCCCUGUGGAGCCAGGGCUGAGCCUUGUCACGCGCACUCGCCAAUUAAGAGAUGGACCAGCCAGCAGUCAAGUGCAUUCUCCAG", "RBNS enrichment (R)": 0.266}
{"Oligonucleotide": "AUCUCCAUUAUCCCGUGCACAUAAGCCAAUCCAGUUGAAUGUGGACAUUACGUUCAAGUGGGCCUCCUGGAACUUAAGAACAAGCACCUCUCCUGUCCCCUUCUGUGUGC", "RBNS enrichment (R)": 0.521}
{"Oligonucleotide": "CUUCAUGCUUCCCCCUUUCCAUAUUAUAAUCUCAUUUGAUUGCUCUGCAGUUGGGAACGGUGAUCUUCUUGAAUGAUGUUUCAGUGUGCAAAAACUAUAGAGCCUGUCAG", "RBNS enrichment (R)": 0.525}
{"Oligonucleotide": "UUGUAGUGUUAAGAUUCCAUACAGAGAGCCCUGUUAUGCAUACCAGUACUACAAAAUAAAGGGGAAAGAAUUCUUGUAGAUAGAAUCCCAAGAGAGCUCAUUUAAUUGUG", "RBNS enrichment (R)": 0.682}
{"Oligonucleotide": "CAGCCUCCCAGCAGGACAACAAAUGGAGGUCCAUCUAUCUUUGUCACCAAGCUGAGGUGUCUGAAGCCUGGAGCUACUGGGACCCCUCCUCUCCUCUAUAGCUAUUAGAU", "RBNS enrichment (R)": 0.339}
{"Oligonucleotide": "UAUCCCAUGUUCCCAGAAAGCUGUGUACUAGUUAAAAACUCUUUUGUCAAGGGGUAGGGAUAGUGGAGAGGCAGAGGAUGGAAUCAGAAUUAUCUGGGCAUUUCCUUAUU", "RBNS enrichment (R)": 0.32}
{"Oligonucleotide": "GACAGUCCUUUUCUUCUGAAGUAAAUAUACAUAUAUAAAUAAAUGUAUAAAUACUGCUUUGUAUCUGACUUGCCUCUGACAUCUUCUUGAGAUUGUUCUGGGGGGAGCCA", "RBNS enrichment (R)": 0.414}
{"note": "Excerpt of the above (sample 3):"}
{"Oligonucleotide": "ACTCACGA", "E-score": -0.221}
{"Oligonucleotide": "CCTCTGGC", "E-score": -0.138}
{"Oligonucleotide": "CATAATGA", "E-score": -0.183}
{"Oligonucleotide": "ACTAGACT", "E-score": 0.0578}
{"Oligonucleotide": "CGCGTAAG", "E-score": 0.364}
